Results collected from several papers.
Each numbered part is a random draw from the data of one study; scales do not carry over between parts. Substitutions count along the parent as printed.
Chain of UniProt P11229 (whole entry, looked up): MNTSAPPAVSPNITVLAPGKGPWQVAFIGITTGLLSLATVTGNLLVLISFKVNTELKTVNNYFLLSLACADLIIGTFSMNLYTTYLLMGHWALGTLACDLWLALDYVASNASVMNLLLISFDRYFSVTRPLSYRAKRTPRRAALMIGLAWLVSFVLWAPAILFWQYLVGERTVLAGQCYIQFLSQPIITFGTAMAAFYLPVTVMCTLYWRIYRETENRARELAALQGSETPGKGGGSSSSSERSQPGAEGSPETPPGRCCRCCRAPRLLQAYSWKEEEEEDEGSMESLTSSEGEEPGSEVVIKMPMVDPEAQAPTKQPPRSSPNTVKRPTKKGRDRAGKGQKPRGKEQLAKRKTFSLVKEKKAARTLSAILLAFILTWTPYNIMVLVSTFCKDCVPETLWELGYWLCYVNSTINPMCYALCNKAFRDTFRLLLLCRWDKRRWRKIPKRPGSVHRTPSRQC
Chain of UniProt P29376 (whole entry, looked up): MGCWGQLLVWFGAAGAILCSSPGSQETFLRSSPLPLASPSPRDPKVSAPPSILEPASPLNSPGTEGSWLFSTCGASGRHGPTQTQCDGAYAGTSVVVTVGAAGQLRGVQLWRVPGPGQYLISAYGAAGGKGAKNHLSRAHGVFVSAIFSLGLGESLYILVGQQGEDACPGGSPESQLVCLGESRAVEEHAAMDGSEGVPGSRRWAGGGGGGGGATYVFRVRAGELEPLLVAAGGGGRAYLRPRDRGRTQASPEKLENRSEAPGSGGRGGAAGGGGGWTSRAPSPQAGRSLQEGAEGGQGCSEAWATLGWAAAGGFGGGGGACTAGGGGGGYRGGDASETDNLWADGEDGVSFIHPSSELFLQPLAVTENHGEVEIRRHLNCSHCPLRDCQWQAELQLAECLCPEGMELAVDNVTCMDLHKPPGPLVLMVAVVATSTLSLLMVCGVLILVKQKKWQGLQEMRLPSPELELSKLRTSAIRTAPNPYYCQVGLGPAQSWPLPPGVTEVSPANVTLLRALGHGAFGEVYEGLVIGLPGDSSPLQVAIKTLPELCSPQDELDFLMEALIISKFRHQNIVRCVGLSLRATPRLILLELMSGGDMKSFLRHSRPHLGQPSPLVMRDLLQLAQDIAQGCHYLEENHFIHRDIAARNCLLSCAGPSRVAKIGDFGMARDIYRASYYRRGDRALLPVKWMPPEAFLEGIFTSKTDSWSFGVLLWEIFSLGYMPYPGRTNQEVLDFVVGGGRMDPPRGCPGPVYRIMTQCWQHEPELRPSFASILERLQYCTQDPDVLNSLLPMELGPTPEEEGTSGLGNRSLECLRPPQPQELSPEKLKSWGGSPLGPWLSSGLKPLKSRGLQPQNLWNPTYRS

Sample 1
Target: CCNF, cyclin fold, Cln2 fusion (human)
Technique: yeast growth competition, sequencing
Sample: yeast
Setting: strong parent motif
Relative to: not given
Direction: higher = stronger binding
Starting sequence: viral docking peptide; KKVKRRLFETREL
Change | normalised enrichment score
R11A | 7.66
R5A | 1.15
V3A | 5.45
R5K | 2.77

Single results of other studies
HLA class I histocompatibility antigen, A alpha chain allele A*26:01: HLA class I histocompatibility antigen, A alpha chain, allele A*26:01 (Homo sapiens, UniProt P04439)
Substance | target | assay | system | conditions | quantity | result
VGNVYVKF | HLA class I histocompatibility antigen, A alpha chain allele A*26:01 | peptide-MHC binding | peptide | concentration not given | binding | inactive
N#CN1CC[C@H](C(=O)Nc2nc3c(s2)CN(C(=O)CN=[N+]=[N-])CC3)C1 | CHRM1 (Homo sapiens, UniProt P11229) | ligand displacement |  | 10 µM | inhibition | 7.58%
LYLQMNSL | HLA class I histocompatibility antigen, A alpha chain allele A*26:01 | peptide-MHC binding | peptide | concentration not given | binding | inactive
N#CC(C#N)=C(N)/C(C#N)=C/c1ccc(O)cc1 | LTK (Homo sapiens, UniProt P29376) | enzyme activity, inhibitor, radiometric |  | 0.5 µM | remaining activity | 92.5%

Excerpt of the above (sample 1):
Change | normalised enrichment score
R5A | 1.15
